Results collected from several papers.
Lines come from different studies, so protocols differ. Several values in a cell are separate wells, animals, samples, runs or records. ± marks the error that the study gave.
lasR: Transcriptional activator protein LasR (lasR, Pseudomonas aeruginosa, UniProt P25084)
Chain of UniProt Q13188 (whole entry, looked up): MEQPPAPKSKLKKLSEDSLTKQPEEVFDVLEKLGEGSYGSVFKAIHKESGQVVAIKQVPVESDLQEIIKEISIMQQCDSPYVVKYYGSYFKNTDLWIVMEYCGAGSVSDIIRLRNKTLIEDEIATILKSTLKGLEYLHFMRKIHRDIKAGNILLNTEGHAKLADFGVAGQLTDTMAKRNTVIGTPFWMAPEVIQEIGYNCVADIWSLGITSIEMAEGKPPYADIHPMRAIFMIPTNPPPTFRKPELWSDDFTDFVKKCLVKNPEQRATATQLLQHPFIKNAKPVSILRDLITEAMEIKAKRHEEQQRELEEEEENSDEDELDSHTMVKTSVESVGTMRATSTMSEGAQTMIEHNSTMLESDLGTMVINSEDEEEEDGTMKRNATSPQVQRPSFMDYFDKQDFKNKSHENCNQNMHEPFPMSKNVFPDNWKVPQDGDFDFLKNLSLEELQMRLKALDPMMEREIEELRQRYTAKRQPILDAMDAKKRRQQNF
Chain of UniProt P21802 (whole entry, looked up): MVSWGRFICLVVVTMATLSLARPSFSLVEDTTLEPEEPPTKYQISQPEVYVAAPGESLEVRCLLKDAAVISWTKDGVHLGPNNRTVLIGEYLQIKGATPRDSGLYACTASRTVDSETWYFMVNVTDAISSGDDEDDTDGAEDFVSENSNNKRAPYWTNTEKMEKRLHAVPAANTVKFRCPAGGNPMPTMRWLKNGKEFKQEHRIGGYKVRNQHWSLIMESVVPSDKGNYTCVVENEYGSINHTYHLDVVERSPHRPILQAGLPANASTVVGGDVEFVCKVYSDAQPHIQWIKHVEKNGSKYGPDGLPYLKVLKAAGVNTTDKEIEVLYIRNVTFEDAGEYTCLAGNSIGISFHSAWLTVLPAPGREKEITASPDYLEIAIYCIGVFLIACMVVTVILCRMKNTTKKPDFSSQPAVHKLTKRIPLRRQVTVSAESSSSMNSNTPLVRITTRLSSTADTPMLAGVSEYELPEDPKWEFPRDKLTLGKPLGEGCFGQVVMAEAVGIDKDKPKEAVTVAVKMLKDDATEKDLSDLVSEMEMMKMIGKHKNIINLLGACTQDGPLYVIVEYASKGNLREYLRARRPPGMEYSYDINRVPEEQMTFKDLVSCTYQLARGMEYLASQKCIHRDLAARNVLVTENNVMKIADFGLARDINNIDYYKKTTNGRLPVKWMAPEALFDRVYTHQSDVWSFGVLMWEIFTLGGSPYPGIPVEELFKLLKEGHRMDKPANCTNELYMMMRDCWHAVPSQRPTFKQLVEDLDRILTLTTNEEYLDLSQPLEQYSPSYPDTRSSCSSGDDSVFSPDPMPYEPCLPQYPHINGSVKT
Chain of UniProt Q9UK32 (whole entry, looked up): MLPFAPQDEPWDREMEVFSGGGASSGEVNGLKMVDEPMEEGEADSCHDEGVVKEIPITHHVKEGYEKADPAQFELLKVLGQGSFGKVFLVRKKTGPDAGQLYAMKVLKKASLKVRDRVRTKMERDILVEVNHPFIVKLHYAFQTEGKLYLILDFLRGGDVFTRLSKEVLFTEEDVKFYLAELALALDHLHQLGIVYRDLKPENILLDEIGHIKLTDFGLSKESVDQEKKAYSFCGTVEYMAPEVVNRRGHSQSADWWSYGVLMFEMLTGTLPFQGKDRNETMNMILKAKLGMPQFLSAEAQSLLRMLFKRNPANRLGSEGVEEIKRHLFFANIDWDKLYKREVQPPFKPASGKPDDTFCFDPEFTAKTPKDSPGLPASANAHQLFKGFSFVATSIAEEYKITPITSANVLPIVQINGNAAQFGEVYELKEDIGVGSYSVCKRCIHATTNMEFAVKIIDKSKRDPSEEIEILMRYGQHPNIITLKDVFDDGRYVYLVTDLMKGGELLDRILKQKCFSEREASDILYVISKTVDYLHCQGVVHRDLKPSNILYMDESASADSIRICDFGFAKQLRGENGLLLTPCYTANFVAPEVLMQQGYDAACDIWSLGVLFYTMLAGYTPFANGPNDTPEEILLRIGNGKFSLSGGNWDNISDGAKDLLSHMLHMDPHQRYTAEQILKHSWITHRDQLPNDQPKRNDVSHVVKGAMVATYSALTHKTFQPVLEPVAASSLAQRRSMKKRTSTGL
Chain of UniProt Q16539 (whole entry, looked up): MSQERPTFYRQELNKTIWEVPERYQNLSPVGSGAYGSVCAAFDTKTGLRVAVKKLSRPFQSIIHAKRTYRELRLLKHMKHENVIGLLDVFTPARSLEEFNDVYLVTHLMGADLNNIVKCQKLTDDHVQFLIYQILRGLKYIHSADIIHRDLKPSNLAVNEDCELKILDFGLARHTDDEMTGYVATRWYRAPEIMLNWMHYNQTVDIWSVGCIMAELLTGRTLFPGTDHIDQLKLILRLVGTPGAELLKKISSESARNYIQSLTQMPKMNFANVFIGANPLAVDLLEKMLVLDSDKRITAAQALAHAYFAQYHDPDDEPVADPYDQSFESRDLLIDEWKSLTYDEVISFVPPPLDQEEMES
Chain of UniProt Q12852 (whole entry, looked up): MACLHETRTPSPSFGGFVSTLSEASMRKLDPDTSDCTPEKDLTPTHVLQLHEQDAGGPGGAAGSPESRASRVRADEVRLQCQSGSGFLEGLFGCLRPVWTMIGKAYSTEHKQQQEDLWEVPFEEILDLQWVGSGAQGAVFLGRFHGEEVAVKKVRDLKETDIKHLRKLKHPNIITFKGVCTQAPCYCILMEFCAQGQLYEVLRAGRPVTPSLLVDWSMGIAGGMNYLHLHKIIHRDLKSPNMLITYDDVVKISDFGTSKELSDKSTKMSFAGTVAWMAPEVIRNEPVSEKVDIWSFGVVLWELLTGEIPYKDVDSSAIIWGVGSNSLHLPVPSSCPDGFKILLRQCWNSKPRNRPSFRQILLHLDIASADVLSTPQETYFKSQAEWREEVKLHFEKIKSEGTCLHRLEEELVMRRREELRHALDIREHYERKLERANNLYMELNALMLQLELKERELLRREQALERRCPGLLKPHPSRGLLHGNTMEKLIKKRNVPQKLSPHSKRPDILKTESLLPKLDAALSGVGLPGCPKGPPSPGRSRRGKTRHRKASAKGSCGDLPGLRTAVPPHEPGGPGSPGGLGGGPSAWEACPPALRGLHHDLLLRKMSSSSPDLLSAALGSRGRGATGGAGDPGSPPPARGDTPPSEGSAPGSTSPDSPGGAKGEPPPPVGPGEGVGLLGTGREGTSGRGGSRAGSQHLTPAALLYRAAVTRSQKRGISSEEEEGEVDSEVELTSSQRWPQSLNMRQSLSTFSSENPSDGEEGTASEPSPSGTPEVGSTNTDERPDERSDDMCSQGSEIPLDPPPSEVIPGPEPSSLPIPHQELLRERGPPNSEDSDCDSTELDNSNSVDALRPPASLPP
Chain of UniProt Q9H093 (whole entry, looked up): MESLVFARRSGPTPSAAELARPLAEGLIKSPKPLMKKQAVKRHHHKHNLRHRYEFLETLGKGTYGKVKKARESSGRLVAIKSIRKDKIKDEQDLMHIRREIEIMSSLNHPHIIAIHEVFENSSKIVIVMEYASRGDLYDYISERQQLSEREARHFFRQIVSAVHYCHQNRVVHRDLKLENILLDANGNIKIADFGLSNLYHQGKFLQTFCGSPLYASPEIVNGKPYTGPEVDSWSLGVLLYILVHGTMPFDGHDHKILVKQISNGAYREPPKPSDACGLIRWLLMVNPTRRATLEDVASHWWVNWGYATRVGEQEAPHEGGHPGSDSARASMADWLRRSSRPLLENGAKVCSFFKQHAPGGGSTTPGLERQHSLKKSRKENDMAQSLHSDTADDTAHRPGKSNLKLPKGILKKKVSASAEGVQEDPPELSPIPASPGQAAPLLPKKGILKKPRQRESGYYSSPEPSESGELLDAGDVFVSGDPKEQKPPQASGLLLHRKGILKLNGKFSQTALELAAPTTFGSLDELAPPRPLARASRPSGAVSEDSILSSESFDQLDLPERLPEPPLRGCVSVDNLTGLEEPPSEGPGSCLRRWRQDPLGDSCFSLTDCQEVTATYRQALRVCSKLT
Chain of UniProt Q9UPE1 (whole entry, looked up): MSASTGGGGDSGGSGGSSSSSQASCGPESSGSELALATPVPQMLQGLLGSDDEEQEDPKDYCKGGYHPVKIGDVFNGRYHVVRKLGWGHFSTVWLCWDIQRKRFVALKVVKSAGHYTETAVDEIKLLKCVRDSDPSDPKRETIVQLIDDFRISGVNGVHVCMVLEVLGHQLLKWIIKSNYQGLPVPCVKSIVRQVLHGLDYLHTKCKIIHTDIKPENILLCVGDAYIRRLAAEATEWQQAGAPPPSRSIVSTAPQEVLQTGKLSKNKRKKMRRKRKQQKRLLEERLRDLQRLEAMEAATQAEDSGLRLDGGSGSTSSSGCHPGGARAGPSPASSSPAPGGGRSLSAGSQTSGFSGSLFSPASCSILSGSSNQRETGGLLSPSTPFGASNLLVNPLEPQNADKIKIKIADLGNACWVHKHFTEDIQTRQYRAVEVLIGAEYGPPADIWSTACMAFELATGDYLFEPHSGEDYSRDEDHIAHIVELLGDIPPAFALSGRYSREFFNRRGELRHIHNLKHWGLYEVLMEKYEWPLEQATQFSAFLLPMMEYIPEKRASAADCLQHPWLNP
Chain of UniProt Q96GD4 (whole entry, looked up): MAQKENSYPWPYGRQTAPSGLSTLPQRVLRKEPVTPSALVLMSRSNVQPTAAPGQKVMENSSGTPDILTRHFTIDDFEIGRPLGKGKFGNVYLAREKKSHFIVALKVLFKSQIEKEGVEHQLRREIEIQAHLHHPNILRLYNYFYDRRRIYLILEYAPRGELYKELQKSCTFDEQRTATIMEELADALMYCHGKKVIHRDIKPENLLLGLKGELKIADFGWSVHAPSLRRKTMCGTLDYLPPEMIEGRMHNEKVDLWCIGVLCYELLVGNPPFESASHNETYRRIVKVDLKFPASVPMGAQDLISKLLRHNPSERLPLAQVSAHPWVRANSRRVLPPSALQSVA

`O=C(O)c1ccccc1/C=N/Nc1nc(-c2ccccc2Cl)cs1` has an inhibition of -3.61% (RPS6KA6 (Homo sapiens, UniProt Q9UK32); enzyme activity, inhibitor; 1 µM).
The inhibition of `CC(C)[C@H]1NC(=O)C[C@H]2/C=C/CCSSC[C@@H](NC1=O)C(=O)N[C@H](Cc1cccc3ccccc13)C(=O)NCC(=O)O2` is reported as -1.7% (SRPK3 (Homo sapiens, UniProt Q9UPE1); enzyme activity, inhibitor; 10 µM).
With `CN(/N=C/c1ccccc1C(=O)O)c1nc(-c2ccccc2Cl)cs1` the inhibition was 1.74% (FGFR2 (Homo sapiens, UniProt P21802); enzyme activity, inhibitor; 1 µM).
The inhibition of `C[C@H](NCc1ccc(-c2ccc(C(F)(F)F)cc2)cc1)C(N)=O` is reported as 0% (NUAK2 (Homo sapiens, UniProt Q9H093); cell-free assay, competition with immobilised ligand; 1 µM).
For `N[C@H](C(=O)N1CCCC1)C1CCN(c2nccc3c(-c4ncc(Cl)cc4Cl)cccc23)CC1`, the inhibition was 8.7% (MAPK14 (Homo sapiens, UniProt Q16539); kinase activity, inhibitor; 10 µM, added: ATP 1 mM).
`N#Cc1ccc(N2N=C3c4ccc(C(=O)O)cc4CCC3C2C2CCCC2)cc1Cl` (stereo not drawn) gave an inhibition of 1% (DNA (cytosine-5)-methyltransferase 3B, with DNMT3L (DNMT3B, Homo sapiens, UniProt Q9UBC3); enzyme activity; 10 µM).
The inhibition of `C/C(=N\OCCCN1CCCCC1)c1ccc(C(F)(F)F)cc1` is reported as -3.78% (CCKAR (Homo sapiens, UniProt P32238); antagonist, IP-One; 10 µM).
`O=C(CCc1ccc(C(F)(F)F)cc1)N[C@H]1CCOC1=O` has an inhibition of -53% (lasR; reporter gene, antagonist; Escherichia coli JLD271; 10 µM, pSC11 and pJN105L plasmids, added: OdDHL 2 nM).
`COc1cc(OC)cc(B(O)O)c1` gave an inhibition of 93.8% (Uncharacterized hydrolase SAUSA300_2518 (Staphylococcus aureus, UniProt Q2FDS6); enzyme activity, inhibitor; 50 µM).
The inhibition of `CS(C)(=O)=Nc1ccc(-c2ccc(-c3nc4cc(O[C@@H]5CO[C@H]6[C@@H]5OC[C@H]6O)[nH]c4cc3F)cc2)cc1` is reported as -17% (MTOR (Homo sapiens, UniProt P42345); enzyme activity, inhibitor; 10 µM).
With `C=CC(=O)Nc1cc(-c2nn(C3CCC(N4CCN(C(C)=O)CC4)CC3)c3ncnc(N)c23)ccc1Oc1ccccc1` (stereo not drawn) the inhibition was 8.2% (STK3 (Homo sapiens, UniProt Q13188); inhibitor, KiNativ profiling; biochemical; 2 µM).
With `CCCC[C@@H](C=O)NC(=O)[C@H](CC(C)C)NC(=O)[C@H](CC(C)C)NC(C)=O` the inhibition was 18.6 ± 20.6% (Ribosomal processing cysteine protease Prp (prp, Staphylococcus aureus, UniProt Q2FXS9, N63Q); enzyme activity, inhibitor; 10 µM, prp 21.4 nM, added: FITC peptide substrate 0.5 µM).
The inhibition of `CC(=O)NC[C@@H]1[C@@H](O)C[C@H]2[C@H](O)C[C@@H](CO)N12` is reported as 44.7% and 40.7% (β-N-acetylglucosaminidase; enzyme activity, inhibitor, colorimetric; Canavalia ensiformis; 8.56 nM, added: p-nitrophenyl GlcNAc substrate).
The inhibition of `O=C(CCCOc1cccc(Br)c1)N[C@H]1CCSC1=O` is reported as -85% (lasR; reporter gene, antagonist; Pseudomonas aeruginosa PAO-JP2; 100 µM, plasI-LVAgfp reporter, added: OdDHL 150 nM).
The inhibition of `CN(C)[C@H]1C[C@@]23CC[C@@]4(O2)C(=CC[C@]2(C)[C@@H](c5ccc6ccncc6c5)CC[C@H]24)C=C3[C@@H](O)[C@@H]1O` is reported as 5% (Aurora kinase B (AURKB, Homo sapiens, UniProt Q96GD4); ATP probe labelling, inhibitor, KiNativ profiling; 0.1 µM).
`O=C(CC(=O)N[C@H]1CCOC1=O)Cc1ccccc1` has an inhibition of 53% (lasR; reporter gene, antagonist; Escherichia coli JLD271; 10 µM, pSC11 and pJN105L plasmids, added: OdDHL 2 nM).
The inhibition of `COc1ccc(F)cc1S(=O)(=O)Nc1cnc2c(c1)C(=O)NCCO2` is reported as -4% (phosphodiesterase 3; enzyme activity, inhibitor; 10 µM).
`O=C(CN1CN(c2ccccc2)C2(CCN(C(=O)c3cnc4[nH]ncc4c3)CC2)C1=O)NCC(F)(F)F` has an inhibition of under 50% (MAP3K12 (Homo sapiens, UniProt Q12852); inhibitor; concentration not given).
